Published values pooled from the literature.
Parts stem from different laboratories: compare values within a part only. Substitutions count along the parent as printed.

Series 1
Target: ABI1, truncated, D143A, DHFR fusion (Arabidopsis thaliana)
Technique: DHFR PCA, deep sequencing
Matrix: yeast
Setting: methotrexate growth selection, single substitutions
Together with: (+)-ABA 4.8 µM
Reference: wild-type fitted maximum
Reading: higher = stronger binding
Starting sequence: PYL1, truncated, DHFR fusion (Arabidopsis thaliana); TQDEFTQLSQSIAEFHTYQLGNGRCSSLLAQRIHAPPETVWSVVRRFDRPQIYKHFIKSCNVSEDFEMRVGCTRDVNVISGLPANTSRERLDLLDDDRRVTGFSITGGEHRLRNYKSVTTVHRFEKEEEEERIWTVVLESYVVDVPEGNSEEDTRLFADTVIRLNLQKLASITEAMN
`M176N` — result for “relative binding score”: 52.6%.
`T120G`: “relative binding score” -0.391%.
For `N85G`, “relative binding score” read 64.9%.
`H110T`: “relative binding score” 20.6%.
Under “relative binding score”, `R45T` is recorded as 5.39%.
`E152G`: “relative binding score” 51.9%.
`E127T` — result for “relative binding score”: 75.5%.
`Y18T` — result for “relative binding score”: 34.6%.
`L28I` — result for “relative binding score”: 70.3%.
`S26G`: “relative binding score” 61%.
`C60K`: “relative binding score” -5.04%.
Under “relative binding score”, `N149H` is recorded as 9.87%.
Under “relative binding score”, `Y53I` is recorded as -6.84%.
For `I133A`, “relative binding score” read 92.3%.
For `L20N`, “relative binding score” read 67.4%.
Under “relative binding score”, `T86N` is recorded as 81.7%.
`F103E` — result for “relative binding score”: -18.3%.
`S42A` — result for “relative binding score”: 71.2%.
`H16N`: “relative binding score” 3.82%.
For `S27I`, “relative binding score” read 0.434%.
`N61K`: “relative binding score” 83.1%.
`C25I`: “relative binding score” 58%.
Under “relative binding score”, `F56R` is recorded as -6.32%.

Series 2
Target: Sal-like protein 4, full length isoform A (SALL4, Homo sapiens, UniProt Q9UJQ4, residues 1-1053)
Chain of UniProt Q9UJQ4 (whole entry, looked up): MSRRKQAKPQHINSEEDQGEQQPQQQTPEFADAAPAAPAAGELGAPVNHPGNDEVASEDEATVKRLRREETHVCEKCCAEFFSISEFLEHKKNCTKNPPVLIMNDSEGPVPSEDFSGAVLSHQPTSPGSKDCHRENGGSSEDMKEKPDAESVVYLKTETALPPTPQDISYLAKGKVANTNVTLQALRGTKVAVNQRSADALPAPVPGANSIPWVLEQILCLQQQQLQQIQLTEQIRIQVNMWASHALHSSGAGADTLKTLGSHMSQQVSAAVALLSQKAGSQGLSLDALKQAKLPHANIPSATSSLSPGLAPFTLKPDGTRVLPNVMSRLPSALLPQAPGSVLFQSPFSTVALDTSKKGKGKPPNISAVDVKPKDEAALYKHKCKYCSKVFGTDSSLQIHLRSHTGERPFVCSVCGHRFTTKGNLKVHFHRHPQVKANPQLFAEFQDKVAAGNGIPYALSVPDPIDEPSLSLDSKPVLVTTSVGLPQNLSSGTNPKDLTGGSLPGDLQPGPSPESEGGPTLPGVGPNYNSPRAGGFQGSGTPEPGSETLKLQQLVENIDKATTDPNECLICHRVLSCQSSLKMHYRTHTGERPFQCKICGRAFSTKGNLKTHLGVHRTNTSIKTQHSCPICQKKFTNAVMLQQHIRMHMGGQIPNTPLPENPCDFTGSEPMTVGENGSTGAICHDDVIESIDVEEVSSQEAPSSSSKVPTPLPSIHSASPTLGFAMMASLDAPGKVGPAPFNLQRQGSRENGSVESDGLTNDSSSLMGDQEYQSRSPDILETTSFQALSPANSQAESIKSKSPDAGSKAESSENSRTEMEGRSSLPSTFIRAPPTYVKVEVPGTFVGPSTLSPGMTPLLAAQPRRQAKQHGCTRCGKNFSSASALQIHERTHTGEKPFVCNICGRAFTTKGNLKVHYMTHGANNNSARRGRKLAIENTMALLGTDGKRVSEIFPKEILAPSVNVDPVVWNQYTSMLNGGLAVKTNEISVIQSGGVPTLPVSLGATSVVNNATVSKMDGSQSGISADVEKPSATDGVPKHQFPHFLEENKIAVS
Technique: universal PBM
Molecule type: double-stranded DNA, one strand shown
Matrix: in vitro
Concentration: 600 nM
Setting: 8-mer, flanks averaged, mean of replicates
Reading: higher = stronger binding
For `AGACAAAT`, the E-score was 0.182.
For `ACTAGAAT`, the E-score was 0.225.
For `GAAATACA`, the E-score was 0.247.
`AAGTCCTA` gave an E-score of -0.012.
`ACCCTGTC` has an E-score of -0.16.
`CCGGGGGA` has an E-score of -0.307.
For `CGGGTCAA`, the E-score was -0.278.
With `CGAACGAG` the E-score was -0.052.
The E-score of `ATAGAATA` is reported as 0.348.
`AGCCATTC` gave an E-score of -0.0711.
With `ATGTTCTA` the E-score was 0.0937.
For `ATCCCACA`, the E-score was 0.0163.
For `TACTGATA`, the E-score was 0.211.
For `ACGAGTTA`, the E-score was 0.161.
The E-score of `CCAGATCG` is reported as -0.194.
`CCCAAAGG` has an E-score of -0.238.
The E-score of `ATGCAGTC` is reported as 0.0841.
With `ATAAGCTC` the E-score was 0.115.
`TGCTATAA` has an E-score of 0.185.

Series 3
Target: CCNB3, cyclin fold, Cln2 fusion (human)
Technique: yeast growth competition, sequencing
Matrix: yeast
Setting: weak parent motif
Reference: not given
Reading: higher = stronger binding
Starting sequence: ANKRD17 docking peptide (human); PSVRRQLFVTVVK; partner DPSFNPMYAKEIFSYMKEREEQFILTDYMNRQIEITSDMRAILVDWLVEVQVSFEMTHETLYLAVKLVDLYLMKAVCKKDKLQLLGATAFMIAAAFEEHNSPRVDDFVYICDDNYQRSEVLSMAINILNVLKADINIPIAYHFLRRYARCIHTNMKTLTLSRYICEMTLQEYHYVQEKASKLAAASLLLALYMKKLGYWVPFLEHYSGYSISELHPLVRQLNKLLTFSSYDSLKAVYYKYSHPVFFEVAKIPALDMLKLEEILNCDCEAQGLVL
`F8A` — result for “normalised enrichment score”: 0.363.
`F8L`: “normalised enrichment score” 0.541.
Under “normalised enrichment score”, `P1A` is recorded as 0.7.
`Q6A`: “normalised enrichment score” 0.268.
Under “normalised enrichment score”, `R4A` is recorded as 0.613.
For `R5A L7A`, “normalised enrichment score” read 0.139.
For `S2A`, “normalised enrichment score” read 0.598.
`R5K F8L`: “normalised enrichment score” 0.824.
For `V9A`, “normalised enrichment score” read 0.344.
Under “normalised enrichment score”, `L7A` is recorded as 0.675.

Series 4
Target: UBE2E1 UBC core domain (UniProt P51965)
Chain of UniProt P51965 (whole entry, looked up): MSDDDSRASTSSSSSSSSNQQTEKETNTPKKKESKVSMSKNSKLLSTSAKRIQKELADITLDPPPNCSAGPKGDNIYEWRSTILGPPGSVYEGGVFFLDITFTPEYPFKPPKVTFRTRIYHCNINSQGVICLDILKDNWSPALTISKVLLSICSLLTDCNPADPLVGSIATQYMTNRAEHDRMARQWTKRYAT
Technique: yeast two-hybrid
Matrix: yeast
Setting: mostly zero background
Reference: not given
Reading: higher = stronger interaction
B1: TRIM10 RING domain (UniProt Q9UDY6); chain SVTSLADEVNCPICQGTLREPVTIDCGHNFCRACLTRYCEIPGPDLEESPTCPLCKEPFRPGSFRP
B2: RFPL2 RING domain (UniProt O75678); chain MAALFQEASSCPVCSDYLEKPMSLECGCAVCLKCINSLQKEPHGEDLLCCCSSMVSRKNKIRR
B3: RNF112 RING domain (UniProt Q9ULX5); chain QPMAPRELPTCSICLERLRDPISLDCGHDFCIRCFSTHRLPGCEPPCCPECRKICKQKRGLR
B4: TRIM38 RING domain (UniProt O00635); chain STKKMMEEATCSICLSLMTNPVSINCGHSYCHLCITDFFKNPSQKQLRQETFCCPQCRAPFHMDSLRP
B5: RNF5 RING domain (UniProt Q99942); chain ERGGAGATFECNICLETAREAVVSVCGHLYCWPCLHQWLETRPERQECPVCKAGISREKVVP
B6: PEX2 RING domain (UniProt P28328); chain DNTLATSGKECALCGEWPTMPHTIGCEHIFCYFCAKSSFLFDVYFTCPKCGTEVHSLQPLK
B7: UBE4A RING domain (UniProt Q14139); chain LQQQEEETYADACDEFLDPIMSTLMCDPVVLPSSRVTVDRSTIARHLLSDQTDPFNRSPLTMDQIRPNTELKEKIQRWLAERKQQKEQLE
B8: TRIM3 RING domain (UniProt O75382); chain VQPMDKQFLVCSICLDRYQCPKVLPCLHTFCERCLQNYIPAQSLTLSCPVCRQTSILPEQGV
B9: RNF14 RING domain (UniProt Q9UBS8); chain IKCFNSKLFLCSICFCEKLGSECMYFLECRHVYCKACLKDYFEIQIRDGQVQCLNCPEPKCPSVATPGQVK
For `B1 (TRIM10 RING domain)`, “lacZ reporter activity” read 0.
Under “lacZ reporter activity”, `B2 (RFPL2 RING domain)` is recorded as 0.
`B3 (RNF112 RING domain)` — result for “lacZ reporter activity”: 0.
`QLQDEEDDSLCRICMDAVIDCVLLECGHMVTCTKCGKRMSECPICRQYVVRAVHVF (RNF34 RING domain (UniProt Q969K3))` — result for “lacZ reporter activity”: 0.
`B4 (TRIM38 RING domain)` — result for “lacZ reporter activity”: 0.
For `ISNDSETLEECMVCSDMKRDTLFGPCGHIATCSLCSPRVKKCLICKEQVQSRTKIE (MIB1 RING domain (UniProt Q86YT6))`, “lacZ reporter activity” read 0.
For `B5 (RNF5 RING domain)`, “lacZ reporter activity” read 0.
`MANWVFCNRCFQPPHRTSCFSLTNCGHVYCDACLGKGKKNECLICKAPCRTVLLSK (RNF212 RING domain (UniProt Q495C1))` — result for “lacZ reporter activity”: 0.
For `LKQVSIRENCCSLCCDEVADTQLKPCGHSDLCMDCALQLETCPLCRKEIVSRIRQI (RSPRY1 RING domain (UniProt Q96DX4))`, “lacZ reporter activity” read 0.
For `B6 (PEX2 RING domain)`, “lacZ reporter activity” read 0.
`B7 (UBE4A RING domain)` — result for “lacZ reporter activity”: 0.
`B8 (TRIM3 RING domain)` — result for “lacZ reporter activity”: 0.
`B9 (RNF14 RING domain)`: “lacZ reporter activity” 0.

Excerpt of the above (series 2):
With `CGAACGAG` the E-score was -0.052.
The E-score of `ATAGAATA` is reported as 0.348.
`AGCCATTC` gave an E-score of -0.0711.
With `ATGTTCTA` the E-score was 0.0937.
For `ATCCCACA`, the E-score was 0.0163.
For `TACTGATA`, the E-score was 0.211.
For `ACGAGTTA`, the E-score was 0.161.
The E-score of `CCAGATCG` is reported as -0.194.
`CCCAAAGG` has an E-score of -0.238.
The E-score of `ATGCAGTC` is reported as 0.0841.
